Published values pooled from the literature.
A part holds a random share of what one study measured. Changes are numbered by the printed parent chain.

Set 1
Target: ABI1, truncated, D143A, DHFR fusion (Arabidopsis thaliana)
Method: DHFR PCA, deep sequencing
Matrix: yeast
Setting: methotrexate growth selection, single substitutions
With: (+)-ABA 0.11 µM
Relative to: wild-type fitted maximum
Direction: higher = stronger binding
Starting sequence: PYL1, truncated, DHFR fusion (Arabidopsis thaliana); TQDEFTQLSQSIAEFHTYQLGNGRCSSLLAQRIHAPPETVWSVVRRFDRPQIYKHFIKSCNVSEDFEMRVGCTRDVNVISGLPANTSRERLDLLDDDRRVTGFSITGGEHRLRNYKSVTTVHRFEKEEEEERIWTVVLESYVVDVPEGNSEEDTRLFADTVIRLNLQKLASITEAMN; partner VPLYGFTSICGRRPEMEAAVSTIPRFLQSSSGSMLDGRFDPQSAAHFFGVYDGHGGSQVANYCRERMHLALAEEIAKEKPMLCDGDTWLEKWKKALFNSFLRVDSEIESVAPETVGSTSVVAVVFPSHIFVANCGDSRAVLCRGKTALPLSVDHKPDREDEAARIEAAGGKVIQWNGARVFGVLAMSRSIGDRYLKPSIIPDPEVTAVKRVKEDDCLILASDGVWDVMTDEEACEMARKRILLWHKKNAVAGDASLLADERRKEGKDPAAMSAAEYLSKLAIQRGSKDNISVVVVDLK
Substitution	relative binding score [%]
N22P	59.4
S80N	37.1
V76G	-1.51
A84C	41.2
S11T	38.1
S42V	-0.394
R74E	2.88
S42F	-3.77
I172S	-1.15
R90P	0.233
K126A	60.5
R90S	2.06
D153M	-3.81
V62W	-10.1
D97H	26.3
E89Q	-0.697
V76W	3.96
V76C	4.72
N177L	22.2
R69I	28.1

Set 2
Target: CCNE2, cyclin fold, Cln2 fusion (human)
Method: yeast growth competition, sequencing
Matrix: yeast
Setting: strong parent motif
Relative to: not given
Direction: higher = stronger binding
Starting sequence: NPAT docking peptide (human); PCHRRVLCFDSTT; partner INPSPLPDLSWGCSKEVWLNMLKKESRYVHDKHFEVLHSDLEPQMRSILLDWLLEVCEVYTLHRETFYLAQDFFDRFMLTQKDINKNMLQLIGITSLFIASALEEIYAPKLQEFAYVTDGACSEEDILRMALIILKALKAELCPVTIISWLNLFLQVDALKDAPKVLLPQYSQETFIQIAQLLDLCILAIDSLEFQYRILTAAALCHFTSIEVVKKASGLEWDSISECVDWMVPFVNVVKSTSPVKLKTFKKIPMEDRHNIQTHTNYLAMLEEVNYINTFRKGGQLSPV
Substitution	normalised enrichment score
PCHRKVLCFDSTT [R5K]	0.947
PCHRRALCFDSTT [V6A]	1.33
PCHRAVLCFDSTT [R5A]	0.138
PCHARVLCFDSTT [R4A]	1.47
PCHRRVLCFDATT [S11A]	1.31
PCHRRVACFDSTT [L7A]	-0.0936
PCHRAVACFDSTT [R5A L7A]	-0.0826
PCHRRVLCLDSTT [F9L]	0.41
PCHRRVLCFASTT [D10A]	1.63
PCARRVLCFDSTT [H3A]	2.95

Set 3
Target: HLF, bZIP domain (human)
Method: DHFR protein complementation
Matrix: yeast
Setting: single substitutions, most at no-binding floor
Relative to: wild-type JUN-FOS pair
Direction: higher = stronger binding
Starting sequence: JUN, bZIP domain (human); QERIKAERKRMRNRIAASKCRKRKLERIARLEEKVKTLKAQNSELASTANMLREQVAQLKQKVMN; partner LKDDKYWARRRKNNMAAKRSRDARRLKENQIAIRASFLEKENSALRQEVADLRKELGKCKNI
Substitution	binding fitness
L52A	-1.59 natural log
E54P	-1.54 natural log
R30Q	-1.29 natural log
L45M	-1.45 natural log
V56A	-1.55 natural log
L52F	-1.55 natural log
K36C	-1.46 natural log
S47V	-1.35 natural log
V56N	-1.56 natural log
E33I	-1.44 natural log
L45G	-1.46 natural log
A29N	-1.48 natural log
K36N	-1.43 natural log
Q41D	-1.17 natural log
N42S	-1.5 natural log
L59T	-1.46 natural log
T37L	-1.44 natural log
S43R	-1.27 natural log
A29D	-1.45 natural log
Q41S	-1.5 natural log
L45C	-1.47 natural log
L38I	-1.45 natural log
N42K	-1.53 natural log
E44Q	-1.5 natural log

Set 4
Target: Histone acetyltransferase KAT6A, winged helix 2, GST fusion (KAT6A, Homo sapiens, UniProt Q92794, residues 85-181)
Method: protein binding microarray
Form: double-stranded DNA, one strand shown
Matrix: in vitro
Concentration: not given
Setting: 8-mer, flanks averaged, mean of 2 arrays, mostly near background
Relative to: not given
Direction: higher = stronger binding
Residues (chain): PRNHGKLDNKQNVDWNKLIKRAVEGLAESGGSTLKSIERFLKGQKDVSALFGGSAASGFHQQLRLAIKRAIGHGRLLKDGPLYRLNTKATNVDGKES
Strand	E-score
ACTGTAAA	-0.0397
CATCCTCG	0.146
GCGCCGAC	0.164
GGTGATAC	-0.0328
ACTCCGAG	0.0577
CTGCTAGC	-0.109
AGGTATGC	0.00599
CAAGGCGA	-0.00806
CGGCATTA	0.148
AACACGGC	0.0843
GCAAGGAA	0.155
CAGTAACC	-0.0144
CCGGCAAG	0.1
CCGAATGA	0.186
ACGTGTCC	-0.186
GGGACGAA	0.244
CCACCAAC	0.00692
GAGATAGC	-0.00741
GGTGTATA	-0.0783
ATGGGGGA	-0.195
ATGGCGTC	0.0215
CGCCTTGA	0.0606
GGAATCCC	-0.0528
ATCGTTTC	-0.0684
CAGACACG	-0.0059

Set 5
Target: Protein max, full length (MAX, Homo sapiens, UniProt P61244-2, residues 1-151)
Method: protein-binding microarray
Form: double-stranded DNA, one strand shown
Matrix: in vitro
Concentration: not given
Setting: k-mer, scored over probes, only values ≥0.25
Direction: higher = stronger binding
Strand	E-score
CATGCTCC	0.399
CCTGCACG	0.368
CTCGTGGC	0.448
CGAGCCAC	0.254
ACGTGTAG	0.419
AACGCACG	0.388
CGCATGCA	0.424
CTCATGCC	0.342
CCGACACG	0.295
ATGTGAAT	0.293
ATGACCAC	0.293
ACGCGGCC	0.26
CCAACACG	0.353
ACATGATA	0.271
CACGCTGC	0.453
CCACCCGC	0.26
AACGTGTG	0.393
CCCCACCC	0.269

Set 6
Target: RNA binding protein fox-1 homolog 2, RRM domain, GST-SBP tag (RBFOX2, Homo sapiens, UniProt O43251-10, residues 100-194)
Method: RNA Bind-n-Seq
Form: RNA
Matrix: in vitro
Concentration: 365 nM
Setting: natural RNA segment, single round, ends assumed
Relative to: no-protein control
Direction: higher = stronger binding
Residues (chain): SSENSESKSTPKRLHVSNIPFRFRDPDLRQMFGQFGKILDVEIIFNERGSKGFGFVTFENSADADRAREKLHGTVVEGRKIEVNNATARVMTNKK
Strand	RBNS enrichment (R)
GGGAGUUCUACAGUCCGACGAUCGUUGAGGGUCACCACAACAUGAGGAACUAUAUUAAAGACUCGUGGCAUUAGGAAGGUUGAGAACCACUUCUCUAGGGCUCAAUGUAUUAGAUAACUCACUAAGGGGUAAAUGGAAUUCUCGGGUGCCAA	0.347
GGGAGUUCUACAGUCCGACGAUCUCUUAUCCAAUAUAUCUUCUCAGAUGGGAUGACUGCGGGUCAGUGUACAGGAAGAGGCAGGCACUGGCUGGCUCAGCUCCACUCGGGUGGAGUGGAAGUGGCCAGACCAUUGGAAUUCUCGGGUGCCAA	0.279
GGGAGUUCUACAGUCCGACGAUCAUCUGUGAUGCUCUGUCCCAAGCCAUGGGGAUCUAGAGGUGAAUCAGAAAUAGCCUCAGAAACUGAGGGUUUCAUAGUUGGAAGGAAGAAAUGGUCAUAAACACAAAUCAUGGAAUUCUCGGGUGCCAA	0.245
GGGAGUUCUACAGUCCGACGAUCCCUAAGGUGCUCAGCGUCUCAAGAGGACUGGGGUCGAGGCUAAUCUCCAAGCUCCAUCUGCAAAGGAAGGAGGUCUUCCUAGCUGAGCCGACUGUACAUCUGCAGUCCCUUGGAAUUCUCGGGUGCCAA	0.261
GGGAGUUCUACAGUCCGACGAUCACACCUAAGUCGUGAGCAUAUCCUGAGUUUUACUUCCUUAUGGCUUGCCCUCCAAGUUCUCUCUCUCAUACACACACACACCCUUGCUCCAGAAUCACCAGACACCUCCAUGGAAUUCUCGGGUGCCAA	1.57
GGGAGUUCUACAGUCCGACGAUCUUUCAGCUCUAACUGGAUCCUCCCGCCCCAUGGGAUAUGGGGUGGCUGCCCUGAGUGCCCACGCGAGGGCGGCCGCAAGUUGACUAAACGGGGACACACACGGCUGAACCUGGAAUUCUCGGGUGCCAA	0.248
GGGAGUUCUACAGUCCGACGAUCUCUUUUCCUAUAGGUUUGCAGAGCAUGUCUGCAGUUUCUCGGUUGUUAUAGAUUUCCUACCUAACCGGGAUGAUGAUGCACAGAACUCUAAAGCCAGUAGUGUGGCAACAUGGAAUUCUCGGGUGCCAA	4.69
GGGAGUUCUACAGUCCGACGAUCGUGGUCUUCUUGCACAGUGUGUGGCAGUUGAGAAAGCCUAGAAAAGGUGCCCAUUUGACCACUGUGAGGCAAAUAGAAACAGUCCCUAAGGGUCCUAUGUGGCUGUGUUGUGGAAUUCUCGGGUGCCAA	0.957
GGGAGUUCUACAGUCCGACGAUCAAUACGAGGAACUUCUUCAGGUGAUAAAGAAAUUUCGGGAUGAAGAGCUUGAGCACCAUGACAUAGGCCUCGACCAUGAUGCAGAAUUGGCUCCAGCCUAUGCCGUCCUGUGGAAUUCUCGGGUGCCAA	0.607
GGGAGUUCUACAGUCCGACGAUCCAAACCAGUGGGGGUUGGACAAUGAAUGUAGUUAACUGGUUCCUGCUCACACUCCAGAAUUAAAUUCUAUUGAAAAAGGAAAAUCAGCAAUUCAGCAAAAAAUAAAUAAAUGGAAUUCUCGGGUGCCAA	0.448
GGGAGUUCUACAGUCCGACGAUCAUGUGGGUAUAGCUCAGGGUAAGCUGCUCUGAGGUAAAGGUCCAUGAACCCUGCCCCACUCCUGUCAGCCCCUCAUCAGCCUUUUCAGCAGGUUCCAGUGCCUGACUUGGUGGAAUUCUCGGGUGCCAA	0.333
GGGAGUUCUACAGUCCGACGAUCACAACUUUGCAGAAAGAGACACAGCUGGCUCUCUGCAGUGGUGUCCUCUCUGUUGCGUGUGUCGAGAGACACUGACAGUUUCGUGUAACUCCCAGGAAUACUGUACCUGUUGGAAUUCUCGGGUGCCAA	0.355

Set 7
Target: Sal-like protein 4, full length isoform A (SALL4, Homo sapiens, UniProt Q9UJQ4, residues 1-1053)
Sequence of UniProt Q9UJQ4 (whole entry, looked up): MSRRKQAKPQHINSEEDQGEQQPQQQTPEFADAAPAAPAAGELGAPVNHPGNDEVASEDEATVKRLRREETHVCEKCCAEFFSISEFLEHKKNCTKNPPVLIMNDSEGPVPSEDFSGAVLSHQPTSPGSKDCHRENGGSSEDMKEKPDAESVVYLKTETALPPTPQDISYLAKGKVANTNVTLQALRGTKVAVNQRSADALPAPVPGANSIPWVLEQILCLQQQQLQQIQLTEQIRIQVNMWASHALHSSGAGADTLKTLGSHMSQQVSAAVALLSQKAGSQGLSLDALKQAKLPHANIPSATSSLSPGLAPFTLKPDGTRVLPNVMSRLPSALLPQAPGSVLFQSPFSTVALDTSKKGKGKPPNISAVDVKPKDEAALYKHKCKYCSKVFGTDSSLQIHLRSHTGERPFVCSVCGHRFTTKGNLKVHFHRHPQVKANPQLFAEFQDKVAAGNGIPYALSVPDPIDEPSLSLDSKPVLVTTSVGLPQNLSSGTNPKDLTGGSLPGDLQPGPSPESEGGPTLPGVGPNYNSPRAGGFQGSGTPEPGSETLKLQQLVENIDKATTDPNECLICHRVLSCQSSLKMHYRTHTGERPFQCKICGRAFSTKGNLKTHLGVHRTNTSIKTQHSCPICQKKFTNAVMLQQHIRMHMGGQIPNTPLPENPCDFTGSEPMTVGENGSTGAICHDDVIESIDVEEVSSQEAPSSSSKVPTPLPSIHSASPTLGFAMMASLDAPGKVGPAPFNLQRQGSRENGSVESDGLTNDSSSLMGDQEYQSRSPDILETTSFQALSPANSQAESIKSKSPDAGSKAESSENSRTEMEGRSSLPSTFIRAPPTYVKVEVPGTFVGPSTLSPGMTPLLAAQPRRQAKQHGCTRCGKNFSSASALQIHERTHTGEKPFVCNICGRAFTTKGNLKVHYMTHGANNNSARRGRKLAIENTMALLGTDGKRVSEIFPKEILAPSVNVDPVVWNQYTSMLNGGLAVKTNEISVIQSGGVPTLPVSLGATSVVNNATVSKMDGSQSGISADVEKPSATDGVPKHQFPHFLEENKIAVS
Method: universal PBM
Form: double-stranded DNA, one strand shown
Matrix: in vitro
Concentration: 600 nM
Setting: 8-mer, flanks averaged, mean of replicates
Direction: higher = stronger binding
Strand	E-score
ATAGTTTC	0.205
AAGTCGAC	0.052
GAAGGCGA	-0.216
AAATCTTG	0.156
AAGCAAAT	0.214
GTTTGCCA	-0.00023
CGGTGCAA	-0.163
CACTATCG	-0.0152
TGAGCGAA	-0.00683
AAAATGGT	0.287
AATGCCAA	0.0642
AAGGTTTG	0.039
AACTCCCA	-0.0544
GGGCTGAC	-0.268
CCCTTGCA	-0.22
CAAAGTCG	-0.134
GAAAGGTC	-0.0363
CTTCGAAA	0.0894
GCTCGTGA	-0.163
CGATGTGA	0.0729
CGGCCTAA	-0.17
CCACCTAG	-0.242
TACAGCTA	-0.0355
ACATCACT	0.208
AGTACAAC	0.113

Other studies, line by line
Molecule	target	test	system	setting	how to read	endpoint	result
PhoQ, residues 284 288 289 292 302 303 NLSRDF	PhoP, residues 12 14 15 18 19 TTLRV (Escherichia coli, UniProt P23836)	Sort-seq, measured: YFP reporter	E. coli	PhoQ-PhoP variant library, with: 10 µM Mg2+	relative to: high Mg2+ state, higher = stronger signaling	fold induction	0.893
